Assay results pooled from the literature.
Compare with care: the assays were run in different laboratories. ± gives the spread as reported.

`O=C(O)CCCN1CCN2CCN(CC1)CC(=O)[O][Al]([18F])[O]C(=O)C2` has a tissue uptake of 13.5 ± 0.7 %ID (Sprague-Dawley rat, renal pedicle ligation, blood; 60 min).
For `COc1cc2ccnc(Cc3ccc(O[11CH3])c(OC)c3)c2cc1OC`, the tissue uptake was 3.12 ± 0.256 %ID/g (Sprague-Dawley rats, liver; intravenous, 0.08333 h).
The tissue uptake of `CCNc1cc2[o+]c3cc(NCC)c(C)cc3c(-c3ccccc3C(=O)OCCOCC[18F])c2cc1C` is reported as 0.15 ± 0.02 %ID/g (rat, liver; 60 min).
`O=C(c1ccc(F)cc1)C1CCN(C2Cc3c(cccc3OCC[18F])CC2O)CC1` (single isomer, unassigned; (-)) gave a tissue uptake of 1.2 ± 0.323 %ID/g (Sprague-Dawley rat, male, pancreas; intravenous, dose not given, 5 min).
`CCN(CC)c1ccc2c(-c3ccccc3C(=O)OCCOCC[18F])c3ccc(=[N+](CC)CC)cc-3oc2c1` has a tissue uptake of 2.51 ± 0.16 %ID/g (rat, heart; 60 min).
With `COc1ccc(NC(=O)Cn2c(=O)c3ccccc3n(CC(=O)Nc3cc([125I])c(OC)cc3OC)c2=O)cc1` the tissue uptake was 0.09 ± 0.01 %ID/g (Wistar rat (normal), fat; intravenous, 0.5 h).
The tissue uptake of `CN(C)c1ccc(C(=O)NCCCCN2CCN(c3ccccc3O[11CH3])CC2)cc1` is reported as 1.52 ± 0.331 %ID/g (male Sprague Dawley rat, liver; iv, 5 min; reference: untreated).
`CCN(CC)c1ccc2c(-c3ccccc3C(=O)OCCC[18F])c3ccc(=[N+](CC)CC)cc-3oc2c1` gave a tissue uptake of 8.26 ± 1.62 %ID/g (rat, kidney; 60 min).

For quick reference, copied from above:
`CCN(CC)c1ccc2c(-c3ccccc3C(=O)OCCC[18F])c3ccc(=[N+](CC)CC)cc-3oc2c1` gave a tissue uptake of 8.26 ± 1.62 %ID/g (rat, kidney; 60 min).
